# Results from different studies.
# Protocols differ between the studies behind these lines. ± marks the error that the study gave.
Substance,tested on,assay,system,conditions,how to read,quantity,result
Nc1ncnc2c([C@@H]3N[C@H](CO)[C@@H](O)[C@H]3O)c[nH]c12,Junin virus,viral replication,"HeLa, Romero",3.1 µM,,inhibition,1.9%
Cc1ccc(C2(C(=O)N3CCC4(CC3)CC(CNS(C)(=O)=O)CCO4)CCCC2)cc1 (stereo not shown),Venezuelan equine encephalitis virus,viral replication,,40 µM,,inhibition,< 10%
CCc1ccc(NC(=O)c2cc3c(=O)n4ccccc4nc3n2C)cc1,Severe acute respiratory syndrome coronavirus 2,"viral replication, inhibitor, qPCR",Vero C1008,10 µM,,inhibition,96.2%
O=C(NC1CCCCC1)C(c1cccs1)N(Cc1ccc2c(c1)OCO2)C(=O)Cc1c[nH]c2ccccc12 (stereo not shown),Rickettsia prowazekii,,Vero cells,"9.4 µM, 72 h",,inhibition,21%
Teicoplanin,SARS-CoV-2 pseudovirus,viral entry,,10 µM,,inhibition,42.7 ± 5.31%
COc1ccccc1NC(=O)NCC1CCOC2(CCN(C(=O)C3(c4ccccc4)CCCC3)CC2)C1 (stereo not shown),Venezuelan equine encephalitis virus,viral replication,,40 µM,,inhibition,40%
Nc1ccn([C@@H]2O[C@H](CO)[C@@H](O)C2(F)F)c(=O)n1,Enterovirus C,"viral replication, refers to: Gaussia luciferase",HeLa,"10 µM, 48 h",,inhibition,96.6%
CS(=O)(=O)NCC1CCOC2(CCN(C(=O)Cc3ccccc3)CC2)C1 (stereo not shown),Venezuelan equine encephalitis virus,viral replication,,40 µM,,inhibition,20%
CC[C@H](C)[C@H](NC(=O)[C@H](CC(C)C)NC(=O)[C@H](Cc1c[nH]c2ccccc12)NC(=O)[C@H](CCC(N)=O)NC(=O)[C@@H](NC(=O)[C@H](Cc1ccccc1)NC(=O)[C@H](C)NC(=O)[C@H](CCCCNC(=O)COCCOCCNC(=O)COCCOCCNC(=O)CC[C@H](NC(=O)CCCCCCCCCCCCCCCCCCC(=O)O)C(=O)O)NC(=O)[C@H](CCC(N)=O)NC(=O)[C@H](C)NC(=O)[C@@H](NC(=O)[C@H](CCCCN)NC(=O)[C@H](CC(=O)O)NC(=O)[C@H](CC(C)C)NC(=O)C(C)(C)NC(=O)[C@@H](NC(=O)[C@H](CO)NC(=O)[C@H](Cc1ccc(O)cc1)NC(=O)[C@H](CC(=O)O)NC(=O)[C@H](CO)NC(=O)[C@@H](NC(=O)[C@H](Cc1ccccc1)NC(=O)[C@@H](NC(=O)CNC(=O)[C@H](CCC(=O)O)NC(=O)C(C)(C)NC(=O)[C@@H](N)Cc1ccc(O)cc1)[C@@H](C)O)[C@@H](C)O)[C@@H](C)CC)[C@@H](C)CC)C(C)C)C(=O)N[C@@H](C)C(=O)NCC(=O)NCC(=O)N1CCC[C@H]1C(=O)N[C@@H](CO)C(=O)N[C@@H](CO)C(=O)NCC(=O)N[C@@H](C)C(=O)N1CCC[C@H]1C(=O)N1CCC[C@H]1C(=O)N1CCC[C@H]1C(=O)N[C@@H](CO)C(N)=O,,refers to: anti-drug antibodies,healthy human subjects,"1.5 mg multiple ascending, titer ≥1:20",,subjects with treatment-induced ADA,0%
Cc1ccc(NC(=O)c2cc3c(=O)n4cccc(C)c4nc3n2C)cc1Cl,Severe acute respiratory syndrome coronavirus 2,"viral replication, inhibitor, qPCR",Vero C1008,10 µM,,inhibition,96.5%
CC(Nc1nc(N2CCNCC2C)nc2ccccc12)c1ccccc1 (stereo not shown),SARS-CoV-2,cytopathic effect,USA_WA1/2020,,,AC50,14.1 µM
Cn1cnc(Cn2c(=O)[nH]/c(=N\c3cc4cn(C)nc4cc3Cl)n(Cc3cc(F)c(F)cc3F)c2=O)n1,Severe acute respiratory syndrome coronavirus 2,viral replication,Vero C1008,17.15 nM,,inhibition,0%
CC(C)NC(=O)NCC1CCOC2(CCN(C(=O)C3(c4ccccc4)CCCC3)CC2)C1 (stereo not shown),Venezuelan equine encephalitis virus,viral replication,,40 µM,,inhibition,60%
CNC(=O)[C@@H](NC(=O)[C@H](CC(C)C)[C@H](O)C(=O)NO)C(C)(C)C,human fibrinogen,SDS-PAGE,Daboia russelii,"concentration not given, unit not given, with: MP venom",relative to: untreated fibrinogen,remaining fibrinogen Aα chain,0.449
COc1ccc([C@@]23Oc4cc(OC)cc(OC)c4[C@@]24NC(C)=N[C@@]4(O)[C@H](C(=O)N(C)OC)[C@H]3c2ccccc2)cc1,SARS-CoV,cell-based,,concentration not given,,inhibition,~50%
CN(C)S(=O)(=O)NCC1CCOC2(CCN(C(=O)C3(c4ccncc4)CCCC3)CC2)C1 (stereo not shown),Venezuelan equine encephalitis virus,viral replication,,40 µM,,inhibition,< 10%
O=C(O[C@@H]1Cc2c(O)cc(O)cc2O[C@@H]1c1cc(O)c(O)c(O)c1)c1cc(O)c(O)c(O)c1,Severe acute respiratory syndrome coronavirus 2,"cytopathic effect, inhibitor",Vero C1008,0.7812 µM,,inhibition,0%
CC(C)(C)C(O)(CCc1ccc(Cl)cc1)Cn1cncn1 (stereo not shown),Xanthomonas oryzae pv. oryzae,bacterial growth,,128 µg/mL,,inhibition,100%
COc1ccc(C[C@@H]2c3cc(Oc4cc(C[C@@H]5c6cc(O)c(OC)cc6CCN5C)ccc4O)c(OC)cc3CCN2C)cc1,Severe acute respiratory syndrome coronavirus 2,cytopathic effect,Vero C1008,6.25 µM,,inhibition,0%
CCC(C)n1ncn(-c2ccc(N3CCN(c4ccc(OCC5COC(Cn6cncn6)(c6ccc(Cl)cc6Cl)O5)cc4)CC3)cc2)c1=O (stereo not shown),Enterovirus C,"viral replication, refers to: Gaussia luciferase",HeLa,"10 µM, 48 h",,inhibition,96%
Cc1cccn2c(=O)c3cc(C(=O)Nc4ccc(N(C)C)cc4)n(C)c3nc12,Severe acute respiratory syndrome coronavirus 2,"viral replication, inhibitor, qPCR",Vero C1008,1 µM,,inhibition,87.6%
C=C[C@@](C)(/C=C/c1ccc(O)cc1)CCC=C(C)C,Severe acute respiratory syndrome coronavirus 2,"cytopathic effect, inhibitor",Vero C1008,50 µM,,inhibition,0%
CC(C)(C)NC(=O)NCC1CCOC2(CCN(C(=O)C3(c4ccccc4)CCCC3)CC2)C1 (stereo not shown),Venezuelan equine encephalitis virus,viral replication,,40 µM,,inhibition,50%
O=C(/C=C/c1ccc(O)c(O)c1)O[C@@H]1C[C@@](O)(C(=O)O)C[C@@H](O)[C@@H]1O,"Pseudovirus, SARS-CoV-2 spike",viral entry,,concentration not given,,inhibition,46.6%
CCCCN(CCCC)CCCNC(=O)c1ccc2nc(N3CCCCC3)sc2c1,SARS-CoV-2,cytopathic effect,USA_WA1/2020,"retest, 8-point, duplicates",,maximum response,86.5%
CC(C)=CCc1c(O)ccc(C(=O)/C=C/c2ccc(O)cc2)c1O,Severe acute respiratory syndrome coronavirus 2,"cytopathic effect, inhibitor",Vero C1008,0.7812 µM,,inhibition,0%
CN(C)S(=O)(=O)NCC1CCOC2(CCN(C(=O)C3(c4cccc(C(F)(F)F)c4)CCCC3)CC2)C1 (stereo not shown),Venezuelan equine encephalitis virus,viral replication,,40 µM,,inhibition,50%
CC(=O)O[C@]1(C(C)=O)CC[C@H]2[C@@H]3C=C(Cl)C4=CC(=O)[C@@H]5C[C@@H]5[C@]4(C)[C@H]3CC[C@@]21C,Enterovirus C,"viral replication, refers to: Gaussia luciferase",HeLa,"10 µM, 48 h",,inhibition,85.1%
CC(C)(C)[C@H](NC(=O)C(F)(F)F)C(=O)N1C[C@H]2[C@@H]([C@H]1C(=O)N[C@H](C#N)C[C@@H]1CCNC1=O)C2(C)C,SARS-CoV-2,"viral replication, infectious virus",Vero E6,0.33 µM,,inhibition,92.2%
Cn1cnc(Cn2c(=O)[nH]/c(=N\c3cc4cn(C)nc4cc3Cl)n(Cc3cc(F)c(F)cc3F)c2=O)n1,,,"human, severe renal impairment","oral, 375 mg, treatment-related decreased GFR, Severe severity",,patients with adverse event,0%
O=C(NCC1CCOC2(CCN(C(=O)C3(c4ccccc4)CCCC3)CC2)C1)Nc1ccccc1 (stereo not shown),Venezuelan equine encephalitis virus,viral replication,,40 µM,,inhibition,70%

# A few entries again:
Substance,tested on,assay,system,conditions,how to read,quantity,result
CC(C)NC(=O)NCC1CCOC2(CCN(C(=O)C3(c4ccccc4)CCCC3)CC2)C1 (stereo not shown),Venezuelan equine encephalitis virus,viral replication,,40 µM,,inhibition,60%
CCCCN(CCCC)CCCNC(=O)c1ccc2nc(N3CCCCC3)sc2c1,SARS-CoV-2,cytopathic effect,USA_WA1/2020,"retest, 8-point, duplicates",,maximum response,86.5%
